Assay results pooled from the literature.
Compare with care: the assays were run in different laboratories. Several values in a cell are separate wells, animals, samples, runs or records. ± gives the spread as reported.

For `C[C@]12CC[C@H](O)CC1=CC[C@@H]1[C@@H]2CC[C@]2(C)C(n3cnc4ccccc43)=CC[C@@H]12.Cl`, “tumour growth inhibition” read 137% (mouse CWR22Rv1 xenograft; oral, 48 mg/kg once daily, 16 days, 5 days per week).
`CC1(C)C(=CC=CC=CC=CC2=[N+](CCC(=O)NCCCC[C@H](NC(=O)CN3CCN(CC(=O)O)CCN(CC(=O)O)CCN(CC(=O)O)CC3)C(=O)NCC(=O)NCCCC[C@@H]3NC(=O)[C@@H](Cc4ccc(O)cc4)NC(=O)[C@H](CC(=O)O)NC(=O)CNC(=O)[C@H](CCCNC(=N)N)NC3=O)c3ccc4ccccc4c3C2(C)C)N(CCC(=O)O)c2ccc3ccccc3c21` (single isomer, unassigned): “tumour visualisation time” no more than 6 h (NIR fluorescence imaging; nude mouse integrin αvβ3-positive tumour; intravenous, dose not given).
`C[C@]12CC[C@H](O)C[C@H]1CC[C@@H]1[C@@H]2CC[C@]2(C)[C@@H](c3ccc(=O)oc3)CC[C@]12O` has a tumour volume of 29.8 mm3 and 63.1 mm3 and 47.4 mm3 and 41.1 mm3 and 48.1 mm3 and 46.4 mm3 and 59.2 mm3 (female nude mouse LCC2 xenograft; 1.0 mg/kg, day 13, tamoxifen-resistant).
`CC1(C)CN(CCCCC(=O)N[C@H](Cc2ccc(O)c(I)c2)C(=O)N[C@H](Cc2ccccc2)C(=O)N[C@H](CCCCNC(=O)CCCCCCC(=O)NCCCC[C@H](NC(=O)N[C@@H](CCC(=O)O)C(=O)O)C(=O)O)C(=O)O)CC[N]2CC(C)(C)[S][Tc]2(=[O])[S]1` (some centres unmarked) [technetium-99m labelled] — result for tumour uptake: “decreased” (SPECT/PET imaging; mouse, subcutaneous LNCaP tumour, tumour; dose not given, 4 h post-injection).
`Cc1n[nH]cc1-c1cc2nc([C@@H]3CC4CCN3CC4)[nH]c(=O)c2s1` has a tumour volume of 493 ± 58 mm3 (mouse COLO 205 xenograft; oral, 20 mg/kg twice daily, 21 days).
For `C[C@]12CC[C@H](n3ccnc3)CC1=CC[C@@H]1[C@@H]2CC[C@]2(C)C(n3cnc4ccccc43)=CC[C@@H]12`, “tumour growth inhibition” read 83.8% (mouse CWR22Rv1 xenograft; oral, 20 mg/kg once daily, 16 days, 5 days per week).
For `CC[C@H](C)[C@@H]([C@@H](CC(=O)N1CCC[C@H]1[C@H](OC)[C@@H](C)C(=O)N[C@H](C)[C@@H](O)c1ccccc1)OC)N(C)C(=O)[C@@H](NC(=O)[C@@H](NC)C(C)C)C(C)C`, tumour weight read “decreased” (C57BL/6 mouse, subcutaneous Lewis lung carcinoma; dose not given, end of study).
`C=CC(=O)N[C@H]1C=C(C)c2c(-c3cnc4ccccc4c3)c3c(N)ncnc3n2C1` — result for “tumour growth inhibition”: 92% (mouse NCI-H2073 xenograft; oral, 100 mg/kg once daily, day 14).
`CC[C@H](C)[C@@H]1NC(=O)[C@H](CCCNC(=N)N)NC(=O)C[C@@H](c2cccc3ccccc23)NC(=O)[C@@H]2CSSC[C@H](NC(=O)C[C@@H](c3cccc4ccccc34)NC(=O)[C@H](CCCNC(=N)N)NC(=O)[C@@H]3CCCN3C(=O)[C@@H]3CCCN3C1=O)C(=O)N[C@@H](Cc1ccccc1)C(=O)N1CCC[C@H]1C(=O)N[C@@H](CC(=O)O)C(=O)N[C@@H](CC(=O)O)C(=O)N[C@@H](Cc1ccccc1)C(=O)N2`: “tumour volume difference onset” 24 days (Calu-3 NSCLC xenograft, athymic Foxn1 nude mouse; oral, 50 mg/kg; reference: vehicle).
For `COc1cc2c3c(n(CCCN4CCOCC4)c(=O)c2cc1OC)-c1cc2c(cc1C3=O)OCO2`, “tumour growth reduction” read 75.6% (bioluminescence imaging; GL261-Luc, mouse orthotopic glioblastoma; intravenous, 25 mg/kg, day 21; reference: control).
`O=C1[O][Pt]2([NH][C@@H]3CCCC[C@H]3[NH]2)[O]C1=O` gave a tumour weight of 0.55 g and 0.706 g and 1.03 g and 0.387 g and 0.642 g (NSG mouse HCT-116 xenograft; intraperitoneal, 7.5 mg/kg).

A few entries again:
For `C[C@]12CC[C@H](O)CC1=CC[C@@H]1[C@@H]2CC[C@]2(C)C(n3cnc4ccccc43)=CC[C@@H]12.Cl`, “tumour growth inhibition” read 137% (mouse CWR22Rv1 xenograft; oral, 48 mg/kg once daily, 16 days, 5 days per week).
